Measured values collected from several papers.
Numbered parts are unrelated; each lists some results of a single study.

Series 1 — technique: protein binding microarray; molecule type: double-stranded DNA, one strand shown; sample: in vitro; tested at: not given; baseline: not given; reading: higher = stronger binding
Target: Histone acetyltransferase KAT6A, winged helix 1, GST fusion (KAT6A, Homo sapiens, UniProt Q92794, residues 1-85)
Notes: 8-mer, flanks averaged, mean of 2 arrays, mostly near background
Construct (chain): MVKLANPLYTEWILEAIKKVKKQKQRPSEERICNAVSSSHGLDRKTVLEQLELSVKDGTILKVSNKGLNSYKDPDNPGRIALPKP
Oligonucleotide	E-score
GAACGTCC	-0.0435
TATTATCA	-0.0955
GATGACGC	0.16
CCTTAATC	-0.108
CATGGCAG	-0.0981
CGGTTAAC	0.201
AAACTACG	0.123
AGGTCATG	-0.164
AGCTGTCG	-0.00136
AGACCAAC	-0.315
TTCCAAAA	-0.268
AAAGCGTT	-0.013
GGAGTTCA	-0.0627
GAAATGAC	-0.0619
GGTCAACA	-0.258
GAATGGTC	0.0592
GGCGGGAA	0.381
CGGACGCC	0.338

Series 2 — technique: RNA Bind-n-Seq; molecule type: RNA; sample: in vitro; tested at: not given; baseline: input RNA pool; reading: higher = stronger binding
Target: RING finger protein unkempt homolog, zinc fingers 1-6, GST-SBP tag (UNK, Homo sapiens, UniProt Q9C0B0, residues 30-357)
UniProt Q9C0B0, sequence (30-357, looked up): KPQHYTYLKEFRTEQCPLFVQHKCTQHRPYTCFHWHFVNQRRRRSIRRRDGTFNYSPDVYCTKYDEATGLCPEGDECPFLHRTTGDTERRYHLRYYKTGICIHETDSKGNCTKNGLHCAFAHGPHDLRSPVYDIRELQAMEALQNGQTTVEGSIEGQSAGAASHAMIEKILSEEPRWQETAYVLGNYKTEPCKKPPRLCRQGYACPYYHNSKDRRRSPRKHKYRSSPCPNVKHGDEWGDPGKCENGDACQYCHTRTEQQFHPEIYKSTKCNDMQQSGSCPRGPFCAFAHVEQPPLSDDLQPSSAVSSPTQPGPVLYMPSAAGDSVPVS
Notes: RNA with constant flanks, human and mouse sites, ends assumed
Oligonucleotide	bound/input enrichment [ratio]
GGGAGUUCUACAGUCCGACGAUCCUCUAGAUUCUGUAUCUAGAUCACCAUGGCGACUGGACAGAAGUUGAUGAGAGCUGUUAGAGUUUUUGAAUUUGGUGGGCCAGAAGUCCUGAAAUUGCGAUCAGAUAUUGCAGUACCGAUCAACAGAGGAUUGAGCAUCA	1.57
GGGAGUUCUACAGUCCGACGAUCACUAACAGGCCAUUUAUUUCCCAGAAAAUCCACUUUCCUGACUUUUCUACCAGAGACAUACAUAGGAAUUAUGUUGAUUGUGUGCGAUGGUUAGGCGAUUUGAUACUUUCCAAGUCUUGUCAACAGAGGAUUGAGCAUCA	0.289
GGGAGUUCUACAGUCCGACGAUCACACUGUAUGCCCACUUUGAGCAAGCCAACAUUAAAGCCCAGCUGCAGCAGCUUGGGGUGACCCUUUCUAUGACCAGGACAGAGCUGUCUCCCGCUCAGAUCAAGCAGCUCUUACAAAACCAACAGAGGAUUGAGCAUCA	0.14
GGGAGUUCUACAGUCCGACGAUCUGGACUACCAAGCAUGUGGCUGUGUGGCUGAAGGACGAAGGUUUCUUUGAGUAUGUGGACAUUUUAUGCAACAAGCACCGCCUUGAUGGAAUCACAUUGCUCACGCUGACUGAAUAUGAUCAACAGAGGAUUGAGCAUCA	0.186
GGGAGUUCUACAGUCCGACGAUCGUUGGCUGGCUCCGGUCCAAGAAGGCUGUUGACUGGCGUCUCUUUCGUAACAUUUUUAUGGCCUGGUUUGUCACAGUCCCCAUUUCUGGAGUUAUCAGUGCUGCCAUCAUGGCAAUCUUCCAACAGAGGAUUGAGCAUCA	0.123
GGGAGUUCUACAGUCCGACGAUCUUUGUAUUUAUGCUAAGCACACGUGCUGGUGGUCUGGGCAUCAAUCUUGCAACUGCUGAUGUAGUCAUUUUAUAUGACUCAGAUUGGAAUCCGCAAGUUGAUCUUCAGGCUAUGGACCGUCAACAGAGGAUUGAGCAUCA	0.106
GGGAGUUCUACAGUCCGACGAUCUUUAGAGGAAAUGCUGUUACUUGGAAUUAAUUUUCCAGUUAUACAGUCUUCUAUAACUUACUAAUAAUAUUCUAUAUGUACUUUAUGUAAUUUCCCUAAAAAGAAUGAACUACCACUACACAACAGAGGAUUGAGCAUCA	0.32
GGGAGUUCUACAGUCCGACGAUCCUACAUCCCUGGCUGCCGCUGCUGUUACUUCAGGAUGAAAGGGGAGACCCCCGUUAACAGCACUAUGAGUAUUGGUCAAGCACGCAAGAUGGUGGAACAGCUUAAGAUUGAGGCCAGCUUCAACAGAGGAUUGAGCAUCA	0.178
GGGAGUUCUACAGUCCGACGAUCUCUGGCCAUACUCGUGCAUAUGGUGUGUGCUUUGUUGAUACUUCACUGGGAAAGUUUUUCAUAGGUCAGUUUUCAGAUGAUCGCCAUUGUUCGAGAUUUAGGACUCUAGUGGCACACUAUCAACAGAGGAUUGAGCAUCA	0.62
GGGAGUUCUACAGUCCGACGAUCGUUUCAUUCCAUUCCCAUUCAGAUCAUCGUUUUCUGGGCACCGUAGAAAAAGAAGCCACUUUUUCCAAUCCUAAAACUACAAGCCCAAAUAAAGGCAAAGACAAGGAGGCAGAAGAUGGCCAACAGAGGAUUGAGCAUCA	0.388
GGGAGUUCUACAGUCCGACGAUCAUAGCAAGGAAGAUCAUUAAGGACGGUGAGCAGCAUGAAGAUCUCAAUGAAGUAGCCAAACUAUUCAACAUUCAUGAAGACUGAAGCCCCACAGUGGAAUUGGCAAACCCACUGCAGCCCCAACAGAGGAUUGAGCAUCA	0.413

Series 3 — technique: RNA Bind-n-Seq; molecule type: RNA; sample: in vitro; tested at: 365 nM; baseline: no-protein control; reading: higher = stronger binding
Target: RNA binding protein fox-1 homolog 2, RRM domain, GST-SBP tag (RBFOX2, Homo sapiens, UniProt O43251-10, residues 100-194)
Notes: natural RNA segment, single round, ends assumed
Target sequence (chain): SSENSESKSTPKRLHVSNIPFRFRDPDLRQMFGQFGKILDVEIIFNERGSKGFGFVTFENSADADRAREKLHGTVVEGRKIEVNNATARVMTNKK
Oligonucleotide	RBNS enrichment (R)
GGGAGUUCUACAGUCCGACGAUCCACCUUCAAAGUAACUCUUAGAAGAUGUGCUUGACUUGAUAGCUUACUUAAAUACACACUGCGAAGAGUGAAAAGCUUGGAAAAGCAGAGUUGGGAGGACCCCGAGGAAAUGGAAUUCUCGGGUGCCAA	0.347
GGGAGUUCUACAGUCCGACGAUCGCGUCUCCCACCUUUGGUACCAUCUCUAGUCAUCCUUCCUCCCGGAAGUUGACAAGACACAUCUUGAGUAUGGCUGGCACUGGUUCCUCCAUCAAGAACCAAGUUCACCUUGGAAUUCUCGGGUGCCAA	0.203
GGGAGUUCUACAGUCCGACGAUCUAAGAUGCUCUCGAGCGUUGAGCAGGCACAGCUCUGUCGAGGUCCCUGUCCCCCACCUGUGGUUCUGGCCUCUGAGGUUGGGGGACUACUUGUUUCCCACCCCAGGUUCCUGGAAUUCUCGGGUGCCAA	0.2
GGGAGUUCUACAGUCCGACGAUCAUUUGUCUCAGCUGAGCCUGACAGGACAAGCAUAUAGAAAGACAAGAGGGGGAGAGAGCAGGGCAUUCUGCAGAGGGGACCGAUGGCAAGAGCAGCUGCAUGGGAUGUGUUGGAAUUCUCGGGUGCCAA	6.71
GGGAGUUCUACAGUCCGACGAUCUCUCUCUCUGUGCACUCGUGAUCCAUGUUGAACAAUACAUGUAGGUUCUUUUUCCACGCAAUGUAAGAACAUGAUAUACUGUACGUUGGAAAGCAUUUACCUUAUUUAUAUGGAAUUCUCGGGUGCCAA	0.387
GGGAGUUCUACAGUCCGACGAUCGGCAAUCUUUGCUGAUCUUCUAAAAAUACUUUUUUUUUCCUGAAGAAAAAAAAAGCCACACGAAGUGCAAUAGGGUUGUGCGGCGACUCAUUGAUAUUUCUCUGAUGUGAUGGAAUUCUCGGGUGCCAA	0.35
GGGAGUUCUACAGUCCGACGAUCAGAUUCCUUUCCCUGCCUUCUCCCAUACAUUCCAAAAGGAAGUUCAACAGUAAGCAGCACCUCCAAGACUGUCUCCUUUUGGCCAAUAUCAUAAGAUGGACGCCAUAAUCUGGAAUUCUCGGGUGCCAA	0.27
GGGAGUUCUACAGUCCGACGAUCUGUGUCCUUUAUUGUAGCAUUGCUGUCUGCAAGGGAGCCCCUAGCCCCUGGCAGACAUAGCUGCUUCAGUGCCCCUUUUCUCUCUGCUAGAUGGAUGUUGAUGCACUGGAUGGAAUUCUCGGGUGCCAA	0.363
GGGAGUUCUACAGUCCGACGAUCCUGGCUGCCUCCACUCCCACUUCCCUGACACUGCGGGGCUUGGCUGAGAGAGUGGCAUUGGCAGCAGGUGCUGCUACCCUCCCUGCUGUCCCCUCUUGCCCCAACCCCCAUGGAAUUCUCGGGUGCCAA	0.653

Series 4 — technique: RNA Bind-n-Seq; molecule type: RNA; sample: in vitro; tested at: 1 µM; notes: whole 134-nt RNA, ends assumed; added: 150 mM KCl; baseline: input library; reading: higher = stronger binding
Target: Ras GTPase-activating protein-binding protein 1, C-terminal RGG region (G3BP1, Homo sapiens, UniProt Q13283)
UniProt Q13283, sequence (whole entry, looked up): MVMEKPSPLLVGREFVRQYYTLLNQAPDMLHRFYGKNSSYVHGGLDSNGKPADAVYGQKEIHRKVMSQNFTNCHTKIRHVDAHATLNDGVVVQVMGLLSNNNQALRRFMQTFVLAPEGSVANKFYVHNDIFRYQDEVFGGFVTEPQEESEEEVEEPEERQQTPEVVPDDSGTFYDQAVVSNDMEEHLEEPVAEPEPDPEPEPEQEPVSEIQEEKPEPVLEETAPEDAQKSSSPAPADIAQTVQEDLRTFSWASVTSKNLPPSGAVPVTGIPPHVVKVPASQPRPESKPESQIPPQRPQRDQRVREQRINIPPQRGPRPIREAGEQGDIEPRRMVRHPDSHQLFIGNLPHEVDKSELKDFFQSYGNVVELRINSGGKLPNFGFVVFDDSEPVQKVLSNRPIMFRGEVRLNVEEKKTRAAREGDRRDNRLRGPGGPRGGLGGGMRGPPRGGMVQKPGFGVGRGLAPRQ
Oligonucleotide	log2 enrichment
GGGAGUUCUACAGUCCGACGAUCUGGCCCUCGUGGCAUGCGGGGAGGAAGAGGUGGCCUCAUGGAUCGUGGUGGUCCCGGUGGAAUGUUCAGAGGUGGCCGUGGUGGAGACAGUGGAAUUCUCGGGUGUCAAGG	1.96
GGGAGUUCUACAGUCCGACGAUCAGUCCUGUGCUACACAUCGUAUGUACCGAAUCGGGUUUUUGGGUUUUUGGUUUUUGGAAAGUAUUAUGUUACGCCGUUCGGAUCUGCACUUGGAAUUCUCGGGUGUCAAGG	-1.51
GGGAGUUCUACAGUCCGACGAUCCUCAAGUCCUGUGCUACACAUCGUAUGUACCGAAUCGGUUUUUGGAAAGGAGGAAAGUAUUAUGUUACGCCGUUCGGAUCUGCACUUCCAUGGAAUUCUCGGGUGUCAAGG	-1.29
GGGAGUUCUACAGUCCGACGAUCACCAUACAGGUGGGCAUCUUUGGGAAGUGGGGCAAGGGGGGGAUAGGGAGGGGGGUAACACUUUGGGAACAGGUGGUCCCAGGUCGUUUCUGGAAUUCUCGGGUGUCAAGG	-1.09
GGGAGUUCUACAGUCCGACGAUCCUCAAGUCCUGUGCUACACAUCGUAUGUACCGAAUCGGUUUGGAAAAAGGUGGAAAGUAUUAUGUUACGCCGUUCGGAUCUGCACUUCCAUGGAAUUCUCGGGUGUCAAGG	-0.966
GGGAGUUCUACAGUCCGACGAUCCCUGUGCUACACAUCGUAUGUACCGAAUCGGUUUUUUUGGUUUUUUUGGGUUUUUUUGGGGAAAGUAUUAUGUUACGCCGUUCGGAUCUGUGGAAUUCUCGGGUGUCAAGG	-1.95
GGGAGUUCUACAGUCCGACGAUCCACAGACAACACGCACCCACACAGACACAGAGGGAAGGGGUUGGGAUGGGGACAGGAUGCACAGCAGGGCGGGGUAGGACCCCAGCCCCUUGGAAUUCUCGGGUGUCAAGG	-0.995
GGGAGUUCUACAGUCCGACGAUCGUCCUGUGCUACACAUCGUAUGUACCGAAUCGGGAAAAAAAGGGAGGGAAAAAAAGGGAAAGUAUUAUGUUACGCCGUUCGGAUCUGCACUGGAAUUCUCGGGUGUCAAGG	-0.315
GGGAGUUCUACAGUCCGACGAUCUAACUUUAGAGGAGGAUCUGAUGGAUAUGGCAGUGGACGUGGAUUUGGGGUUGGCUAUAAUGGGUAUGGAGGAGGACCUGGAGGUGGCAAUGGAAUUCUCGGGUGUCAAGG	-1.19
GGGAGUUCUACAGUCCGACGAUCUGGGAGGUGGAUUUUGUUUAUUUUUUUAGCUCAUUUCCAGGGGUGGGAAUUUUUUUUUAAUAUGUUUCAUGAAUAAAGUUGUUUUUGAAAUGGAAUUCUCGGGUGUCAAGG	2.46

Repeated from above (series 1):
Oligonucleotide	E-score
GGAGTTCA	-0.0627
AAACTACG	0.123
CGGTTAAC	0.201
GAAATGAC	-0.0619
TTCCAAAA	-0.268
GAACGTCC	-0.0435
AGACCAAC	-0.315
